Experimental data gathered from unrelated publications.
A part holds a random share of what one study measured.
UniProt P29322, sequence (whole entry, looked up): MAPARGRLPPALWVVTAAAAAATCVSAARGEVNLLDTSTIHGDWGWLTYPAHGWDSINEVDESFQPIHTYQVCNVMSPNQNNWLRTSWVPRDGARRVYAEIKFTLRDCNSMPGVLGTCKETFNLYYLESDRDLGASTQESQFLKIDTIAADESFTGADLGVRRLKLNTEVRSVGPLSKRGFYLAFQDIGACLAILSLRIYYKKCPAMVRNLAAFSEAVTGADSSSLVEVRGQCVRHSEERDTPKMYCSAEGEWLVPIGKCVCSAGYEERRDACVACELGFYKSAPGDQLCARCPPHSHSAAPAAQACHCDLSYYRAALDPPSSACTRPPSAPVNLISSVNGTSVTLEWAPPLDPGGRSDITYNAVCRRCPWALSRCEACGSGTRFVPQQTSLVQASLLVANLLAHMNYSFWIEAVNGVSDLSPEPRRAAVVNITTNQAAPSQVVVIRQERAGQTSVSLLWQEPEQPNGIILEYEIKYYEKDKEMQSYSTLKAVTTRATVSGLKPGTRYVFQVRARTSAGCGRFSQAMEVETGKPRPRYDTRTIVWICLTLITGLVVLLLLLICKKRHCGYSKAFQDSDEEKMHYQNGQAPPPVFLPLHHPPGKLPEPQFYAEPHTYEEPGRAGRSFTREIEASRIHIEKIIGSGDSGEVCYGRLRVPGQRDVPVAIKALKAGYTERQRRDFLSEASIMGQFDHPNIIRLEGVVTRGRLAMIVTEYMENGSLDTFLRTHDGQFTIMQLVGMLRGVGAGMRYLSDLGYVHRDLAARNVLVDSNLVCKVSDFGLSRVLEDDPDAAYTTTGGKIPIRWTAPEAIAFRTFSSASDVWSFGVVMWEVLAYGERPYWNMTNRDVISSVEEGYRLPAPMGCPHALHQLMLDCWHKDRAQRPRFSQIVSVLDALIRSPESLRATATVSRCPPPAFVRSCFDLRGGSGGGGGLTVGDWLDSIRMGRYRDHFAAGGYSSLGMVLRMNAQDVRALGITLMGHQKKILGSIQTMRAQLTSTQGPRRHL
UniProt P54753, sequence (whole entry, looked up): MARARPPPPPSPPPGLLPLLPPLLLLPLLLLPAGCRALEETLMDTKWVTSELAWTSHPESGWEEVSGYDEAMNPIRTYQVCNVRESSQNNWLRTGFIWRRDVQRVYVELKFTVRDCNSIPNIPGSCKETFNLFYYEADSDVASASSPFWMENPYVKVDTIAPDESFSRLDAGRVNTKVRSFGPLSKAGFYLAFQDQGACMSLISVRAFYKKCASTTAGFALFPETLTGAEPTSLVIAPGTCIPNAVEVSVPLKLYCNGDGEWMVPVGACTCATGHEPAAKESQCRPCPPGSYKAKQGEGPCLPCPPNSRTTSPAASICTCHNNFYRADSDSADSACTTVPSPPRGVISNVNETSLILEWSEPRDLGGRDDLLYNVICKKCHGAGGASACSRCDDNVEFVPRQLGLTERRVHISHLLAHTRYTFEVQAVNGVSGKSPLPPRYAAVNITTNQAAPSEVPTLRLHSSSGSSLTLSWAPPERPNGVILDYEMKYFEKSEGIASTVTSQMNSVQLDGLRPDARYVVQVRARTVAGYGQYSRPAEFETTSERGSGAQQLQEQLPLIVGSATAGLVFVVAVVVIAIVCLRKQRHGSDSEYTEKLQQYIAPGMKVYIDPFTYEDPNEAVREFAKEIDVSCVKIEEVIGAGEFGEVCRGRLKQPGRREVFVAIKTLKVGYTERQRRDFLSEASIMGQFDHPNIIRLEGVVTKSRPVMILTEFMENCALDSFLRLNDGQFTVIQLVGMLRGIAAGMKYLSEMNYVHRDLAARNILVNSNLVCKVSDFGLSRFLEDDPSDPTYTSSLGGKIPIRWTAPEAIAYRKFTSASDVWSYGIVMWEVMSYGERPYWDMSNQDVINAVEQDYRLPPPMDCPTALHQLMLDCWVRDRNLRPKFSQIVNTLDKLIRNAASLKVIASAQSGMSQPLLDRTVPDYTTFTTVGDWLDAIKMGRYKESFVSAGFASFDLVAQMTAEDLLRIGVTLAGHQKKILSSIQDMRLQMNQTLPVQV
UniProt P45984, sequence (whole entry, looked up): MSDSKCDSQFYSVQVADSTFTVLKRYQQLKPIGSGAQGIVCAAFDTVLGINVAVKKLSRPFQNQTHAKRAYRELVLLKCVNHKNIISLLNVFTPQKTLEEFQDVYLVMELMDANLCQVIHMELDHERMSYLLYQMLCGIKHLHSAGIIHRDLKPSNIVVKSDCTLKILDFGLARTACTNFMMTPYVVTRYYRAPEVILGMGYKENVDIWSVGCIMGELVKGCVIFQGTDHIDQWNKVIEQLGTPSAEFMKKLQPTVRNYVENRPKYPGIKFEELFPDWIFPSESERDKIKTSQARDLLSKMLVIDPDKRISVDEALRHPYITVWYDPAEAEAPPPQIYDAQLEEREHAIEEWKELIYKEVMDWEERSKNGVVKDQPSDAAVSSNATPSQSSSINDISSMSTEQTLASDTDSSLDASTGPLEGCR
UniProt Q9UQ88, sequence (whole entry, looked up): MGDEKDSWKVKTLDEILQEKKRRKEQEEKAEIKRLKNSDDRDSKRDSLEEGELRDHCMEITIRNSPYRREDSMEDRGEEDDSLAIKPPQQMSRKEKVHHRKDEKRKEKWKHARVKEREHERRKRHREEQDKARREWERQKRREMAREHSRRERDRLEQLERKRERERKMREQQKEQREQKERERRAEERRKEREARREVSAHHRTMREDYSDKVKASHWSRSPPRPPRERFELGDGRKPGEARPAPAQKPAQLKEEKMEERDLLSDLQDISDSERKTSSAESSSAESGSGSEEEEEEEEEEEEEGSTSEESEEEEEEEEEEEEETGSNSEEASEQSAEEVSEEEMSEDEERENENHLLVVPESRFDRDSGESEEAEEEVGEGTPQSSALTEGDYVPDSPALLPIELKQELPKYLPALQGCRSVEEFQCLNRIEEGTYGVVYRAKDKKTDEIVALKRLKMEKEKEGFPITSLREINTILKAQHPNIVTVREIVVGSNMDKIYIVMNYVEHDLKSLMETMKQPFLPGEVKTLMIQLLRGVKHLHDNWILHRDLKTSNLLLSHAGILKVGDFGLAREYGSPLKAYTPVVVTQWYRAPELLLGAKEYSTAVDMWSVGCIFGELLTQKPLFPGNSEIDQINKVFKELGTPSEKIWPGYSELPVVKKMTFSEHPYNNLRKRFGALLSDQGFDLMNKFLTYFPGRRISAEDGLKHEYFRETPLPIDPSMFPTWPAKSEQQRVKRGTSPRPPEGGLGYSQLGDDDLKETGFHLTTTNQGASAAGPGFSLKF
UniProt P10721, sequence (whole entry, unmodified, looked up): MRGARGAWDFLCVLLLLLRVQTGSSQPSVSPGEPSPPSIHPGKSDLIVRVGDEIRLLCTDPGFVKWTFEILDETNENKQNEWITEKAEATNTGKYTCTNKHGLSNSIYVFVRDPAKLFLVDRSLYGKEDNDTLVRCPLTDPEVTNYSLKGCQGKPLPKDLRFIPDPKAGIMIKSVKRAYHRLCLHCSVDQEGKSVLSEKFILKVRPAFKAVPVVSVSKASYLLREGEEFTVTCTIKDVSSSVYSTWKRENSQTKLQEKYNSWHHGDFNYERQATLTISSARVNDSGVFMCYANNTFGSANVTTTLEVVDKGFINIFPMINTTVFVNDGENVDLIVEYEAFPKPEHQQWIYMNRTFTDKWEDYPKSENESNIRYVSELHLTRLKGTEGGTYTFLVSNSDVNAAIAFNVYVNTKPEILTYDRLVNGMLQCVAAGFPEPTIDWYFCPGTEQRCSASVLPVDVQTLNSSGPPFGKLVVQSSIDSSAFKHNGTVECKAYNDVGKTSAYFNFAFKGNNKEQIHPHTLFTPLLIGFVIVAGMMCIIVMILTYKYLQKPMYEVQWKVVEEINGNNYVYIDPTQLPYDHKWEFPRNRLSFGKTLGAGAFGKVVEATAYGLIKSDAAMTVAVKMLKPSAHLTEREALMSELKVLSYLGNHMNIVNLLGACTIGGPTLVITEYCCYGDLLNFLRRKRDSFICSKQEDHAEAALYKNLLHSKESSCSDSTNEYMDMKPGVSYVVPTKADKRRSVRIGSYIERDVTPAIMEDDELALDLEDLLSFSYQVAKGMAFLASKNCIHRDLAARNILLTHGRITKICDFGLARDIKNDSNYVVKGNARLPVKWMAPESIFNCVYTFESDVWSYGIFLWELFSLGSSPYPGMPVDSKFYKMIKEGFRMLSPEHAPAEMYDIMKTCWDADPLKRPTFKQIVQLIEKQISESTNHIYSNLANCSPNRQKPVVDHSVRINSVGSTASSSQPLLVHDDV
UniProt P11802, sequence (whole entry, looked up): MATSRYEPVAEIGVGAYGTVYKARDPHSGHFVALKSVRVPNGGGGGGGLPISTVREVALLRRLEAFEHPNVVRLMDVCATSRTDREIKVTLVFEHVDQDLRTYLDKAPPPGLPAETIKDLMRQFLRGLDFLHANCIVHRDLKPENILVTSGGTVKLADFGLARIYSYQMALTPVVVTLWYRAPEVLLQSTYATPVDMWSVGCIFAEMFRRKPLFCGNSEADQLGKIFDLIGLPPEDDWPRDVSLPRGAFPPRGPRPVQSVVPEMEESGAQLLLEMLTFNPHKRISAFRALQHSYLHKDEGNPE

Block 1
Compound: O=C(N1CCS(=O)(=O)CC1)N1C[C@H](c2ccc(OC(F)(F)F)cc2)C[C@H](c2nc(C3CC3)no2)C1
Effect on: cell-free assay
Method: competition with immobilised ligand
Tested at: 1 µM
It gave 100% for remaining binding (EPHA8 (Homo sapiens, UniProt P29322)).
The remaining binding was 18% (CDK4 (Homo sapiens, UniProt P11802)).
It gave 100% for remaining binding (EPHA3 (Homo sapiens, UniProt P29320)).
For CDK11A (Homo sapiens, UniProt Q9UQ88): remaining binding read 0%.
KIT (Homo sapiens, UniProt P10721, D816H) — remaining binding: 71%.
The remaining binding was 94% (ROCK1 (Homo sapiens, UniProt Q13464)).
For PIK3CA (Homo sapiens, UniProt P42336, E542K): remaining binding read 88%.
EPHB3 (Homo sapiens, UniProt P54753) — remaining binding: 100%.
MAPK9 (Homo sapiens, UniProt P45984) — remaining binding: 84%.
For ERBB2 (Homo sapiens, UniProt P04626): remaining binding read 100%.

Block 2
Compound: COc1ccc(-c2c(Nc3ccccn3)[nH]c3c(C4=CCCCC4)c(-c4ccccc4)nn3c2=O)cc1
Sample: plasma
Route: oral
It gave 185 ng/mL for “plasma concentration, mean” (cancer patients; 50 mg, 24 h post-dose, single dose).
For cancer patients; 100 mg, 24 h post-dose, single dose: “plasma concentration, mean” read 715 ng/mL.
For human patients; 200 mg once daily, 0 h, cycle 1: “plasma concentration, mean” read 6560 ng/mL.
For human patients; 150 mg once daily, 3 h, cycle 1: “plasma concentration, mean” read 5610 ng/mL.
It gave 6430 ng/mL for “plasma concentration, mean” (human patients; 200 mg once daily, 24 h, cycle 1).
For cancer patients; 200 mg, 0 h post-dose, single dose: “plasma concentration, mean” read 0 ng/mL.
The “plasma concentration, mean” was 413 ng/mL (cancer patients; 100 mg, 48 h post-dose, single dose).
The “plasma concentration, mean” was 1600 ng/mL (LC-MS/MS; human; 200 mg twice daily, 6 h, single dose).
It gave 0 ng/mL for “plasma concentration, mean” (cancer patients; 400 mg, 0 h post-dose, single dose).
It gave 0 ng/mL for “plasma concentration, mean” (cancer patients; 150 mg, 0 h post-dose, single dose).
The “plasma concentration, mean” was 885 ng/mL (cancer patients; 400 mg, 2 h post-dose, single dose).

Block 3
Host: mouse
Sample: microsomes or S9
Tested at: 2 µM
Time: 0.5 h
For `Nc1nc(N(Cc2ccco2)Cc2ccco2)c2[nH]cnc2n1`, the remaining compound was 19.4%.
The remaining compound of `Cc1nn(C)c(C)c1-c1cc(C(=O)NCCc2c[nH]c3ccccc23)[nH]n1` is reported as 54.5%.
`COc1cc(NC(=O)CCC(=O)OC(C)C)nc(OC)n1` gave a remaining compound of 0.209%.
With `Cc1cc(C(=O)NCC2(O)CCCC2(C)C)[nH]n1` (stereo not drawn) the remaining compound was 86%.
For `CN(C(=O)CN1C(=O)COc2cc(Cl)c(Cl)cc21)C(CN1CCCC1)c1ccc(-c2ncccn2)cc1` (stereo not drawn), the remaining compound was greater than 100%.
With `Cc1nc(NC(C)Cc2ccccc2)c2sc3nc4c(cc3c2n1)COC(C)(C)C4` (stereo not drawn) the remaining compound was 50.7%.
`CCc1ccc(-c2nnc(N3CCN(C(C)c4nccs4)CC3)n2CCCOC)cc1` (stereo not drawn) gave a remaining compound of 4.28%.
`CCOC(=O)c1c(C(F)(F)F)[nH]n2c(C(F)F)nnc12` has a remaining compound of 97.8%.
For `O=c1cc(-c2ccccc2)oc2cc(O)c(O)c(O)c12`, the remaining compound was 41%.
`O=S(=O)(Nc1cc(Cl)c(Cl)cc1Cl)c1cc(Cl)c(Cl)cc1Cl` has a remaining compound of 32.6%.
`Cc1cc(CO)cc(Oc2nc(Cl)nc(Cl)c2C(C)C)c1` gave a remaining compound of 1.09%.
For `COc1cc(C)ccc1OCCN1CC[C@H]2CNC[C@H]21`, the remaining compound was 22.7%.
`Cc1nn(CCC(=O)NC(C)(C)CN2CCCC(C)C2)c(C)c1C` (stereo not drawn) has a remaining compound of 1.8%.
`Cc1sc2c(C3CCN(C(=O)C(C)NC4CCS(=O)(=O)C4)CC3)nc(C)n2c1C` (stereo not drawn) gave a remaining compound of 1.75%.
With `Cc1cc(C)n(CC(O)CON=C2c3ccccc3-c3ccccc32)n1` (stereo not drawn) the remaining compound was 0.622%.

Block 4
Target: Glycogen synthase kinase-3 alpha (GSK3A, Homo sapiens, UniProt P49840)
UniProt P49840, sequence (whole entry, looked up): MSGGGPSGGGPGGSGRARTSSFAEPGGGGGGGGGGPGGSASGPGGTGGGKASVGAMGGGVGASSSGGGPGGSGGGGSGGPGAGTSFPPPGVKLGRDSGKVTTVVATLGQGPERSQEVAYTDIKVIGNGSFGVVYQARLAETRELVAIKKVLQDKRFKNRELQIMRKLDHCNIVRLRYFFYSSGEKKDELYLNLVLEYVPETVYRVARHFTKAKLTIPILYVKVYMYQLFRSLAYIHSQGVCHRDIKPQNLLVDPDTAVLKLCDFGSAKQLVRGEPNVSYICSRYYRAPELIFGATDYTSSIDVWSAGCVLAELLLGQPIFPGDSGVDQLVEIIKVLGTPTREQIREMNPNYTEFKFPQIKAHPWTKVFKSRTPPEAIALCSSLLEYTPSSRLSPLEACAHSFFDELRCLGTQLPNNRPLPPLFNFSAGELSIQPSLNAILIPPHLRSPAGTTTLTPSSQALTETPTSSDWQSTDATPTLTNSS
Effect on: enzyme activity
Mode: inhibitor
Tested at: 0.5 µM
Relative to: control
For `Nc1nc(Nc2ccc(S(N)(=O)=O)cc2)nn1C(=O)c1c(F)cccc1F`, the remaining activity was 9.59%.
For `NC(=O)c1ccc(N(C(N)=O)c2c(F)cccc2F)nc1-c1ccc(F)cc1F`, the remaining activity was 98.6%.
`CCCC(=O)Oc1ccc2[nH]c(C(=O)c3cc4ccccc4[nH]3)cc2c1` gave a remaining activity of 94.1%.
`CC(=O)c1ccc(N2CCOCC2)cc1O` gave a remaining activity of 101%.
The remaining activity of `O=C1NC(=O)C(c2c[nH]c3ccccc23)=C1c1c[nH]c2ccccc12` is reported as 27.7%.
For `Nc1nccc(-c2c(-c3ccc(F)cc3)ncn2C2CCNCC2)n1`, the remaining activity was 97.5%.
`CC#CC(=O)Nc1cc2c(Nc3ccc(F)c(Cl)c3)ncnc2cn1` gave a remaining activity of 104%.
`Oc1ccc(Nc2nc(-c3ccc(Cl)cc3)cs2)cc1` gave a remaining activity of 97.4%.
`CC(C)(C)n1nc(Cc2cccc3ccccc23)c2c(N)ncnc21` has a remaining activity of 92.1%.
For `CCc1[nH]c(-c2ccc(OC)cc2)nc1-c1ccncc1`, the remaining activity was 99.1%.
With `Fc1ccc(-c2nc3n(c2-c2ccncc2)CCS3)cc1` the remaining activity was 116%.
With `CC[n+]1c(/C=C/N(C)c2ccccc2)n(-c2ccccc2)c2ccc(-c3nc4ccccc4s3)cc21` the remaining activity was 103%.
With `O=S(=O)(NCCNC/C=C/c1ccc(Br)cc1)c1cccc2cnccc12` the remaining activity was 94.3%.
For `Cc1ccc(NC2=CC(=O)c3sc(C)nc3C2=O)cc1`, the remaining activity was 102%.
The remaining activity of `Cc1cc(Nc2nc(-c3ccccc3)nc3ccccc23)n[nH]1` is reported as 11.3%.
For `N#CC(=C(N)Sc1ccc(N)cc1)c1ccccc1C(F)(F)F`, the remaining activity was 110%.
With `COc1cc(Nc2c(C#N)cnc3cc(OCCCN4CCN(C)CC4)c(OC)cc23)c(Cl)cc1Cl` the remaining activity was 103%.
`Nc1ncnc2c1cnn2-c1ccccc1` gave a remaining activity of 90.3%.
The remaining activity of `Cc1cncc2cccc(S(=O)(=O)N3CCCN(C(=O)CN)C[C@@H]3C)c12` is reported as 99.6%.
`COc1ccc(S(=O)(=O)N(CCO)c2ccccc2CN(C)CC=Cc2ccc(Cl)cc2)cc1` gave a remaining activity of 99.9%.
With `CSc1nc(-c2ccnc(N[C@@H](C)c3ccccc3)c2)c(-c2ccc(F)cc2)[nH]1` (racemic) the remaining activity was 94.1%.
